Measured values pooled from the literature.
Numbered parts are unrelated; each lists some results of a single study.
Chain of UniProt Q6XUX3 (whole entry, looked up): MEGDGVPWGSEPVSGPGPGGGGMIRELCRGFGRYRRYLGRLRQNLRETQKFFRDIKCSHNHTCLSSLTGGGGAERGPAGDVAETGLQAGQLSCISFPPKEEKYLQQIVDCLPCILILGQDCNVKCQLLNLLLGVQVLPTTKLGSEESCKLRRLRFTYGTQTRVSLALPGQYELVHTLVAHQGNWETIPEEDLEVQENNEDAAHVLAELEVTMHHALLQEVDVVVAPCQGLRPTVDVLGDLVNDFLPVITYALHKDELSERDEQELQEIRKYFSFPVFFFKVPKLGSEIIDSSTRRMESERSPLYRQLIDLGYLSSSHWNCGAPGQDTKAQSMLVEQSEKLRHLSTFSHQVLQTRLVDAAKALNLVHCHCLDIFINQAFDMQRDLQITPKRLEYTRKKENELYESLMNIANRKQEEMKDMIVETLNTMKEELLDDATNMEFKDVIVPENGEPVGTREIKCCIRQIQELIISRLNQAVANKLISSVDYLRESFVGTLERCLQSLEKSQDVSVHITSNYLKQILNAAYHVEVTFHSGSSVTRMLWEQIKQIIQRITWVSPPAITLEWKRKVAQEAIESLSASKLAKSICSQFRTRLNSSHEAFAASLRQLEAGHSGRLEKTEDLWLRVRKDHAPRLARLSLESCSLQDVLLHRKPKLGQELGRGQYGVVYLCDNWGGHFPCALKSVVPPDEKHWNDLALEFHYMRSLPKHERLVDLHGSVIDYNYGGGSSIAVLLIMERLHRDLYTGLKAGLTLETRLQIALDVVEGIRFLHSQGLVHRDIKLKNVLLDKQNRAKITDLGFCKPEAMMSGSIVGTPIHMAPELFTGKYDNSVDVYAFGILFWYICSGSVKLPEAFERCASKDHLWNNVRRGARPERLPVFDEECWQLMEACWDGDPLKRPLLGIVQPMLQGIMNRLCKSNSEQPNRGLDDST
Chain of UniProt Q13470 (whole entry, looked up): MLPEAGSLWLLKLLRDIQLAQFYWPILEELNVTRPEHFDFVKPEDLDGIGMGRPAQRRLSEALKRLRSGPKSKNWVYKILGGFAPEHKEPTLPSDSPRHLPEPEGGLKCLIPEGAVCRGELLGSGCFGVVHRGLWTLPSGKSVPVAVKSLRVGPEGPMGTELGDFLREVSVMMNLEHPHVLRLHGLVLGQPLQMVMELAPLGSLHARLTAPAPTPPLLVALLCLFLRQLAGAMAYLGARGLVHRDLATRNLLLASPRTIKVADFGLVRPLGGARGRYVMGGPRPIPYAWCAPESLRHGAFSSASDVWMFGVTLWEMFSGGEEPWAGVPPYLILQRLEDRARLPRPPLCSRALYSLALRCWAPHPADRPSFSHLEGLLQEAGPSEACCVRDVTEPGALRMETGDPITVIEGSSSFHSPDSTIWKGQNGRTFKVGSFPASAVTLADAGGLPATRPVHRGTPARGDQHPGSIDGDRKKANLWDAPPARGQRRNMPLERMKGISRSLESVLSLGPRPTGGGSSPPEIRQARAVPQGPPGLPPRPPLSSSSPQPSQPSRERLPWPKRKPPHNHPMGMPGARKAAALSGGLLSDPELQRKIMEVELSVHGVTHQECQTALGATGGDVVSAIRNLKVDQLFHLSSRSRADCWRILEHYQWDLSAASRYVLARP
Chain of UniProt P49759 (whole entry, looked up): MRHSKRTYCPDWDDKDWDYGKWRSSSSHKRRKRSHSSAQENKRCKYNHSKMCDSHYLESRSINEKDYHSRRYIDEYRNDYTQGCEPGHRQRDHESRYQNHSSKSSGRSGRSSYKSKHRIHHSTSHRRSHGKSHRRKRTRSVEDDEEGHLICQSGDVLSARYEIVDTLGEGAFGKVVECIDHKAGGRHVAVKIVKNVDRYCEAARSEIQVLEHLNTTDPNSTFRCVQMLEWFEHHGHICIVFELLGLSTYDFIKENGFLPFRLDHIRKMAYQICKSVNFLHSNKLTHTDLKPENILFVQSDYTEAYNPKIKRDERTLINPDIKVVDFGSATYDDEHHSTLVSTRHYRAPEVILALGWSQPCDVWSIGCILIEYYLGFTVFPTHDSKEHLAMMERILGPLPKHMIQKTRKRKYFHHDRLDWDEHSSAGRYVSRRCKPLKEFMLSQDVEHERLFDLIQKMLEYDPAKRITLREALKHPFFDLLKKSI
Chain of UniProt Q9H792 (whole entry, looked up): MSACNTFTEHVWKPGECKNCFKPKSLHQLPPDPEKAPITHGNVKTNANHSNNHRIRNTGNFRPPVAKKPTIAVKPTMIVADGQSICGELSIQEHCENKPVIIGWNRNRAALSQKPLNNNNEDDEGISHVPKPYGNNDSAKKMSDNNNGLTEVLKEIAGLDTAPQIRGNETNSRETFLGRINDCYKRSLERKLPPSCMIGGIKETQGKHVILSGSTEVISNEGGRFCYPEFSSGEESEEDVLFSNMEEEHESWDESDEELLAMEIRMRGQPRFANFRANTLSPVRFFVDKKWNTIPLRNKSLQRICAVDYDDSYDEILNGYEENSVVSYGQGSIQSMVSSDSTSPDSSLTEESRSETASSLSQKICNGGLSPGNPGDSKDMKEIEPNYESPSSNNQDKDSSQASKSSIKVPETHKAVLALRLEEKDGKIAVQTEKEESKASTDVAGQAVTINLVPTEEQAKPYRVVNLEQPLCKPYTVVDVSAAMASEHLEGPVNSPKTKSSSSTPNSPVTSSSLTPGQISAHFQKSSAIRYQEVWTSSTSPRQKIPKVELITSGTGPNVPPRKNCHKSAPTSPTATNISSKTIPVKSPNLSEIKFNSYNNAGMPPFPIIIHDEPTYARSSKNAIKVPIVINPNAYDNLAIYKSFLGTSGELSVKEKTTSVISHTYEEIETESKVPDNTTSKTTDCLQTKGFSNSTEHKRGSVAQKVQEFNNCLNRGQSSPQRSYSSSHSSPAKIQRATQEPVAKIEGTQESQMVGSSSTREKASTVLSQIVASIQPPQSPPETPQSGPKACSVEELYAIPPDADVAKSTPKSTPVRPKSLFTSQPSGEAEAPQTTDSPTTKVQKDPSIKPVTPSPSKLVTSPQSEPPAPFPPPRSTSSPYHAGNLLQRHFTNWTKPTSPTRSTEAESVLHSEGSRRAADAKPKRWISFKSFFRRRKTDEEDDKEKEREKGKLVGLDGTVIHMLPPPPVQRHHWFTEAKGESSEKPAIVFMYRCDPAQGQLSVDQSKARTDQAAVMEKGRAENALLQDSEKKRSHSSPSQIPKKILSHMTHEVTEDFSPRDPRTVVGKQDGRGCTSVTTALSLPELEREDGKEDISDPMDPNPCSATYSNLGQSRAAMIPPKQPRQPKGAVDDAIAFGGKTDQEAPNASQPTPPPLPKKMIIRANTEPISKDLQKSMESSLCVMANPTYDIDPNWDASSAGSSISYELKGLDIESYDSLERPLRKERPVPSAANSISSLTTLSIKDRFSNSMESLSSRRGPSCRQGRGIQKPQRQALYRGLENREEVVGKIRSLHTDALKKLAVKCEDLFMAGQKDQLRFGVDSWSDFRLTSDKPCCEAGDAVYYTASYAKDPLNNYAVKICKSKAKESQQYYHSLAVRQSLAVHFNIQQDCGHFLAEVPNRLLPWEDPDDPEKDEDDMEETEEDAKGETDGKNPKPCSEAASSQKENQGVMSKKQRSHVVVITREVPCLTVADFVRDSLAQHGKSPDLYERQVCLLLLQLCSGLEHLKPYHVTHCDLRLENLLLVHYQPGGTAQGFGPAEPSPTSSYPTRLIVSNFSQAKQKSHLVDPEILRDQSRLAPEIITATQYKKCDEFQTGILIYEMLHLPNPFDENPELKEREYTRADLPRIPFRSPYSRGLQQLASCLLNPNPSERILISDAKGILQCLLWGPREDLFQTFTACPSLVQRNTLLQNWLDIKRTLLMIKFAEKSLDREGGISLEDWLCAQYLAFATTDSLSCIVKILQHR

Series 1
SMILES: COc1ccc(-c2c(Nc3ccccn3)[nH]c3c(C4=CCCCC4)c(-c4ccccc4)nn3c2=O)cc1
Medium: plasma
Route: oral
| technique | host | dose | time | notes | plasma concentration, geometric mean [ng/mL] |
| --- | --- | --- | --- | --- | --- |
|  | human patients | 400 mg once daily | 24 h | cycle 1 | 1690 |
|  | cancer patients | 50 mg | 1 h post-dose | single dose | 82.2 |
|  | cancer patients | 150 mg | 24 h post-dose | single dose | 694 |
|  | human patients | 100 mg once daily | 6 h | cycle 1 | 2910 |
|  | human patients | 100 mg once daily | 8 h | cycle 1 | 2920 |
| LC-MS/MS | human | 200 mg twice daily | 8 h |  | 9530 |
|  | human patients | 400 mg once daily | 6 h | cycle 1 | 2680 |

Series 2
Compound: O=C(Nc1cnn(-c2csc(C(=O)NC3COC3)c2)c1)Nc1ccccc1Cl
Read-out: enzyme activity
Concentration: 5 µM
| target | mode | relative to | remaining activity |
| --- | --- | --- | --- |
| DMPK (Homo sapiens, UniProt Q09013) |  | untreated control | 101% |
| CLK1 (Homo sapiens, UniProt P49759) |  | untreated control | 80.5% |
| WNK3 (Homo sapiens, UniProt Q9BYP7) |  | untreated control | 96.9% |
| PEAK1 (Homo sapiens, UniProt Q9H792) | inhibitor |  | 91.4% |

Series 3
Compound: O=c1nc(-c2ccccn2)sc2ccccc12
Technique: competition with immobilised ligand
Concentration: 1 µM
| target | read-out | remaining binding |
| --- | --- | --- |
| TNK1 (Homo sapiens, UniProt Q13470) | binding | 59% |
| DSTYK (Homo sapiens, UniProt Q6XUX3) | binding | 88% |
| MAP3K5 (Homo sapiens, UniProt Q99683) | binding | 75% |
| STK17A (Homo sapiens, UniProt Q9UEE5) | binding | 100% |
| ALK (Homo sapiens, UniProt Q9UM73, L1196M) | cell-free assay | 93% |

Series 4
Target: Casein kinase I isoform gamma-2 (CSNK1G2, Homo sapiens, UniProt P78368)
Chain of UniProt P78368 (whole entry, looked up): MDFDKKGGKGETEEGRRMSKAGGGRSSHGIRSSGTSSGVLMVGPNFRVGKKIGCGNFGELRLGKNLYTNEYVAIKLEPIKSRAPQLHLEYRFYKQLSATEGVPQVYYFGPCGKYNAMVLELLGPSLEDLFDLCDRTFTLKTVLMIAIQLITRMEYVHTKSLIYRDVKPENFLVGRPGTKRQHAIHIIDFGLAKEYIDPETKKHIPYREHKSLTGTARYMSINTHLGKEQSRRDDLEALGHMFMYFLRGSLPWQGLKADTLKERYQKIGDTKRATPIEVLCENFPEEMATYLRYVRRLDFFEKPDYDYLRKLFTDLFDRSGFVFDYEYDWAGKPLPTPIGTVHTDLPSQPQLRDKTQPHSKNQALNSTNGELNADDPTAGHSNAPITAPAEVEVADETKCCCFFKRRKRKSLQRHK
Read-out: enzyme activity
Mode: inhibitor
Concentration: 0.5 µM
Relative to: control
| SMILES | remaining activity |
| --- | --- |
| Cn1c2ccccc2c2c3c(c4c5ccccc5n(CCC#N)c4c21)CNC3=O | 105% |
| CNC(=O)c1cc(Oc2ccc(NC(=O)Nc3ccc(Cl)c(C(F)(F)F)c3)cc2)ccn1 | 88.9% |
| OCC(O)CCON=C1C(c2c(O)[nH]c3ccccc23)=Nc2ccccc21 (stereo not drawn) | 85.2% |
| COc1ccc(C(=O)Nc2sc3c(c2C(N)=O)CCCC3)cc1OC | 98.7% |
| O=S(=O)(c1cccc2cnccc12)N1CCCNCC1 | 93.7% |
| O=C(CCCc1ccc(-c2ccccc2F)cc1)Nc1ccc(O)cc1 | 99.4% |
| O=C(O)c1ccc2c3c1cccc3c(=O)n1c3ccccc3nc21 | 93.5% |
| COc1ccc(CNC(=O)Nc2ncc([N+](=O)[O-])s2)cc1 | 100% |
| NCCNc1ncc(C(N)=O)c(Nc2cccc(C(F)(F)F)c2)n1 | 76.6% |
| CC(C)[C@H](CO)Nc1nc(Nc2cc(N)cc(Cl)c2)c2ncn(C(C)C)c2n1 | 35.2% |
| N#CC(C#N)=C(N)/C(C#N)=C/c1ccc(O)cc1 | 104% |
| O=C1NC(=O)C(c2cn(CCCO)c3ncccc23)=C1c1cnccn1 | 66% |

Single results of other studies
Target: Calcium/calmodulin-dependent protein kinase type II subunit alpha (CAMK2A, Homo sapiens, UniProt Q9UQM7)
Chain of UniProt Q9UQM7 (whole entry, looked up): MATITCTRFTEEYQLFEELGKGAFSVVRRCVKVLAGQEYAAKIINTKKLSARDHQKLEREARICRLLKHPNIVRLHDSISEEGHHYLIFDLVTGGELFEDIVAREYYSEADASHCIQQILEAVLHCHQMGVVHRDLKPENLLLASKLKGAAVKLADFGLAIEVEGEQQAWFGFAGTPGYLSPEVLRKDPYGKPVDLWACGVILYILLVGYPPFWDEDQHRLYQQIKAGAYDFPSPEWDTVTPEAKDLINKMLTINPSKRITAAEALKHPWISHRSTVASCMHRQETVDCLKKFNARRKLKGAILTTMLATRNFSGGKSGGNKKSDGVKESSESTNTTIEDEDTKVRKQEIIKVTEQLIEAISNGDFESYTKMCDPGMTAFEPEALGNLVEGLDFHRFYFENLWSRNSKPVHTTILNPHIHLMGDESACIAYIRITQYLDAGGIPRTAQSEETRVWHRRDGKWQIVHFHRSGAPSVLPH
Read-out: enzyme activity
Mode: inhibitor
Concentration: 10 µM
| Structure (SMILES) | inhibition [%] |
| --- | --- |
| Cc1cc(=O)c2c(O)c3c(cc2o1)OC(C)(C)[C@@H](O[C@@H]1O[C@H](CO)[C@@H](O)[C@H](O)[C@H]1O)C3 | 8 |
| CC(=O)OC(C)C[N+](C)(C)C (stereo not drawn) | 18 |

Some of these lines once more (series 3):
| target | read-out | remaining binding |
| --- | --- | --- |
| MAP3K5 (Homo sapiens, UniProt Q99683) | binding | 75% |
| ALK (Homo sapiens, UniProt Q9UM73, L1196M) | cell-free assay | 93% |
| STK17A (Homo sapiens, UniProt Q9UEE5) | binding | 100% |
| TNK1 (Homo sapiens, UniProt Q13470) | binding | 59% |
